Measured values collected from several papers.
Parts stem from different laboratories: compare values within a part only.
Chain of UniProt Q8L7G0 (whole entry, looked up): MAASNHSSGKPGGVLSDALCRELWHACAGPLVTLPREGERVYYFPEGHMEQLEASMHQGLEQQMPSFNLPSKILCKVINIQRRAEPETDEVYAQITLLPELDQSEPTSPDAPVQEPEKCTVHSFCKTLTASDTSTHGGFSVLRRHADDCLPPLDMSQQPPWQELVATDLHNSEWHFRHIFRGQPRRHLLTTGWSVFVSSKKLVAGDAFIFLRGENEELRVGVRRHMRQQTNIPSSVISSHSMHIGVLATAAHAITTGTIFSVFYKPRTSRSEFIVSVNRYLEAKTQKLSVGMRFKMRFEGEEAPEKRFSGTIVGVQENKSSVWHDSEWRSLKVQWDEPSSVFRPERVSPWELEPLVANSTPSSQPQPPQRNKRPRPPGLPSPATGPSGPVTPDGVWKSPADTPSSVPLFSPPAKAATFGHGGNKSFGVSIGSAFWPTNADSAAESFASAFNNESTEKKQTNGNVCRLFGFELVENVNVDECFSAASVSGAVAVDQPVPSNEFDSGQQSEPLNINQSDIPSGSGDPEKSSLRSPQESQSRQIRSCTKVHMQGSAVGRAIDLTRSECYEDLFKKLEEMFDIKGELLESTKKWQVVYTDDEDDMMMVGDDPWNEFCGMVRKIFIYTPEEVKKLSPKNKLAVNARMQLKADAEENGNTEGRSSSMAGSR
Chain of UniProt Q93WC4 (whole entry, looked up): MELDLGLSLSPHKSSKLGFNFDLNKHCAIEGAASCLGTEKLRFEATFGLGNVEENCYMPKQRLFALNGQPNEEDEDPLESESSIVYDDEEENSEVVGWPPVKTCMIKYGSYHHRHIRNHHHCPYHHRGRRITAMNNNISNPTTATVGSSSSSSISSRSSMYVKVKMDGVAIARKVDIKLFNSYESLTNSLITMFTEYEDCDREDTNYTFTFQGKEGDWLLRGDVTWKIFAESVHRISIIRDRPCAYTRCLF
Chain of UniProt Q38830 (whole entry, looked up): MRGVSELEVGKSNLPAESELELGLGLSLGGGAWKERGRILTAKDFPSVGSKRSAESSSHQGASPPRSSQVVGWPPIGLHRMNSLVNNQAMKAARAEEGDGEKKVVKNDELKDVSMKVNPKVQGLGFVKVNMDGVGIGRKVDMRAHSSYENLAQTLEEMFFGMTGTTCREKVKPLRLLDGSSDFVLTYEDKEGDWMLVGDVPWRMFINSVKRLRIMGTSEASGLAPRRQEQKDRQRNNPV
Chain of UniProt O24409 (whole entry, looked up): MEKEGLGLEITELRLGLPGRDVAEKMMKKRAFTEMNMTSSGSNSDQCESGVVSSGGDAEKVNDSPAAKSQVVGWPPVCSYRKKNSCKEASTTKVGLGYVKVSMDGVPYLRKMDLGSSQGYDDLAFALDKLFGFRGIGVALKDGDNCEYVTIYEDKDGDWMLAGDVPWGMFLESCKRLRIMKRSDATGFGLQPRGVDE

Block 1 — method: protein-binding microarray; form: double-stranded DNA, one strand shown; sample: in vitro; tested at: not given; direction: higher = stronger binding; quantity: E-score
Target: Protein C-ets-1 (ETS1, Homo sapiens, UniProt P14921, residues 1-441, K379A, full length assumed)
Notes: k-mer, scored over probes, only values ≥0.25
Residues (chain): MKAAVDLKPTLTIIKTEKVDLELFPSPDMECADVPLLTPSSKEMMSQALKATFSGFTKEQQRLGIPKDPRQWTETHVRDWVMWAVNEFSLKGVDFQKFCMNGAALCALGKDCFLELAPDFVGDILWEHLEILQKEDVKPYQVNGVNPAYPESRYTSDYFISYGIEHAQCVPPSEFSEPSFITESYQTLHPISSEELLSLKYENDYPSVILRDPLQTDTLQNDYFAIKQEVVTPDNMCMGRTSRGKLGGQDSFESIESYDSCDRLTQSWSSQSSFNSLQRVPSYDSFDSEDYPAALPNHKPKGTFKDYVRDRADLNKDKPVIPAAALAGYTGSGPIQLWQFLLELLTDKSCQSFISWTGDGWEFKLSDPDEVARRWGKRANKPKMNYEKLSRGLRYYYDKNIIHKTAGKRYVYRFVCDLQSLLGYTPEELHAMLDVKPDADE
CGTCGACC: 0.262
CCCCGCCA: 0.337
CAGGTAGA: 0.263
TCCGGGAA: 0.353
AATCGGTA: 0.265
ATTACAGG: 0.257
AACTTCCG: 0.382
TGGGCCCA: 0.297
CTATATAC: 0.303
CCGGACCG: 0.272
AATGTAAC: 0.259
CCCGGAAA: 0.419
ACCAATAC: 0.292
TATAGAAA: 0.259

Block 2 — Molecule: B1 (IAA4); method: two-hybrid; relative to: out of 4 tests; direction: higher = firmer interaction; quantity: positive tests
B1: IAA4 (Arabidopsis thaliana, UniProt P33077); chain MEKVDVYDELVNLKATELRLGLPGTEETVSCGKSNKRVLPEATEKEIESTGKTETASPPKAQIVGWPPVRSYRKNNVQTKKSESEGQGNYVKVSMDGAPYLRKIDLTMYKQYPELMKSLENMFKFSVGEYFEREGYKGSDFVPTYEDKDGDWMLVGDVPWEMFVSSCKRLRIMKGSEVKGLGCGGL
ARF1 538-665 (Arabidopsis thaliana, UniProt Q8L7G0): 0
IAA19 (Arabidopsis thaliana, UniProt O24409): 4
IAA12 (Arabidopsis thaliana, UniProt Q38830): 4
IAA29 (Arabidopsis thaliana, UniProt Q93WC4): 1

Block 3 — method: protein-binding microarray; form: double-stranded DNA, one strand shown; sample: in vitro; tested at: 250 nM; notes: 60-bp whole probe; together with: salmon DNA 0.4 mg/ml; relative to: random background probes; direction: higher = stronger binding; quantity: log fluorescence; constant ends, left off below: GCCTAGCAC … GTCTTGATTCGCTTGACGCTGCTG
Target: Interferon regulatory factor 5, full length, phosphomimetic (IRF5, Homo sapiens, UniProt Q13568-2, residues 1-514, K96S/S451D/S453D/S456D/S462D)
TTAGATTTCAGTAGCGATTAGTGCTAG: 1.82 z-score
CCCAATTGTCTTTTCACTTTGTGCTAG: 1.3 z-score
TAAGATTTCAGTCTCGATTAGTGCTAG: 2.15 z-score
GACAATATCGGGTTTCGAGACGTGCTA: 4.59 z-score
GACGGTTTCGGGTCTCGGGACGTGCTA: 6.98 z-score
TTAGGTCTCGGCTTCGGTTAGTGCTAG: 0.345 z-score
CAGTTTTCCTATGTCATTTAGTGCTAG: 1.43 z-score
GACGATATCGGGACTGGACACGTGCTA: 0.77 z-score
GAAGGTTTCGGGACTGGGGACGTGCTA: 4.13 z-score
GACGGTTTCGAGACTGGGGACGTGCTA: 3.37 z-score
TCAGTTTTCTTTTCATTACTGTGCTAG: 2.66 z-score
GACGGACTGCTTATGCTGACGTGCTAG: -0.499 z-score
TTAGGACTGGGGTATTGGTTAGTGCTA: 0.0287 z-score
TTAGAACTGGGGTTCCGATTAGTGCTA: 0.245 z-score
TTAGGTTTCGACTATTGGTTAGTGCTA: 7 z-score
TTATGTATCGGTATCGGTTAGTGCTAG: 9.45 z-score
TTAGGTATCGGTCTCTGTTAGTGCTAG: 6.67 z-score
TTAGAACTGAGTTTCGATGAGTGCTAG: 8.2 z-score
TTAGATATCGGGAGTGGATTAGTGCTA: 1.2 z-score
TTCGATTTCGGGTTTCGATTAGTGCTA: 8.91 z-score
TCATATGTCCTGTCTACAACTGTGCTA: 0.521 z-score
TTAGATTTCGTGACTGGATTAGTGCTA: 1.03 z-score
TTAGAACTGGGGTATCGATTTGTGCTA: 2.01 z-score
CTTGGCAAGATGAGGAAGATGTGCTAG: -0.535 z-score
TTAGGACTGGGTATCAGTTAGTGCTAG: 0.382 z-score

Block 4 — method: universal PBM; form: double-stranded DNA, one strand shown; sample: in vitro; tested at: not given; direction: higher = stronger binding; quantity: E-score
Target: Sal-like protein 4, full length isoform B (SALL4, Homo sapiens, UniProt Q9UJQ4-2, residues 1-616)
Notes: 8-mer, flanks averaged, mean of replicates
Target sequence (chain): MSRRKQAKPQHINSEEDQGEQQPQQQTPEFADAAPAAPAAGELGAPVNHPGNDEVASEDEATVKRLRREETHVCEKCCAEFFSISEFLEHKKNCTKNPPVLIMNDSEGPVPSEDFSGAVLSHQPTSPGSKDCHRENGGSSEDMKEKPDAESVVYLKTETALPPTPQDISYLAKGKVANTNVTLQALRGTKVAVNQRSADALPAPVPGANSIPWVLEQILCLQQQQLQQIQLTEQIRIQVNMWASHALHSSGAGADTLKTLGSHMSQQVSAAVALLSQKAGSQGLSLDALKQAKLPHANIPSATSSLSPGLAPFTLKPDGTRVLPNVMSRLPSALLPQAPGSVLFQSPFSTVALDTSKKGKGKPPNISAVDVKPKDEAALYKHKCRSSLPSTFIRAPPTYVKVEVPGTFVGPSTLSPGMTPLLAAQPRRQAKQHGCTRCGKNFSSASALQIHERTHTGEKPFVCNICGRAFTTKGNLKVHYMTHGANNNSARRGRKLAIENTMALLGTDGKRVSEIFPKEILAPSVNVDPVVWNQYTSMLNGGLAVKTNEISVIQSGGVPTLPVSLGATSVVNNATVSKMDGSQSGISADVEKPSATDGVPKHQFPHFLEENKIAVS
GAAGTTCA: 0.112
TTCCTCAA: 0.0869
GTACTTAA: 0.185
ATTAGAGG: -0.0403
CAATCGGA: -0.132
CTGGGCCC: -0.359
ATGGTCGC: -0.137
GTGCGCAA: -0.11
CGACTGAG: -0.33
CTACACTC: -0.112
GAATACCC: -0.252
AGTCATAG: 0.13
ATTAATTA: 0.401
AATTGGGG: 0.0373
GTGGCAGA: -0.235
CCATGATC: 0.00555

Block 5 — method: RNA Bind-n-Seq; form: RNA; sample: in vitro; tested at: 365 nM; relative to: no-protein control; direction: higher = stronger binding; quantity: RBNS enrichment (R)
Target: RNA binding protein fox-1 homolog 2, RRM domain, GST-SBP tag (RBFOX2, Homo sapiens, UniProt O43251-10, residues 100-194)
Notes: natural RNA segment, single round, ends assumed
Constant ends, left off below: GGGAGUUCUACAGUCCGACGAUC … UGGAAUUCUCGGGUGCCAA
Target sequence (chain): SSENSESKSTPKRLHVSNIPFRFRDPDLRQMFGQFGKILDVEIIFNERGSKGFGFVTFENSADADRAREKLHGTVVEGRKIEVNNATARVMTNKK
GACUUUGUCUGAGCUCAUGACAACAUAUUGCAAAUGGCCGGGCCACUCGUGGCCAGACGGACAGCACUCCUGGCCAGAUGGACCCACCAGUAUCAGCGAGGAGGGGCUUG: 2.41
AUUUGAUACUUUUAAUUUACACUUAGUAAAUUAAAAGUUGUUUAAUUUACUUGGCAUUUUAGGACAUGUACAUGAAACAGUGAAAAUGAGAUCCACCAACAUCUUUUAUU: 0.553
CCUGGGGGGAGCCAAACAGGCUGGAGACGUUUAAAAGACCGUUUCAAAAGAGAUUUACUUUUUUAAAGGACUUUAUCUGAACAGAGAGAUAUAAUAUUUUUCCUAUUGGA: 0.574
CACAGGCAAAACAGCUGAGUCCCCCGUGUGCUGCCCUGCUGCUGCCCCUCAGCCCAGCAGCCUGGGCUCCCAGUGCUGAGGCCCUCUGUUCAGGCCUCCGCCCACCCUGA: 0.336
UAGGUUCCUGCACUUUUUGGUAACUUUAUGUCUAGCAAAUAUUUUAUGCCAAGAAAAGCAUACUAUAAAGCAAAUAUCUAUUAUUCUCCUAAACGAAUGCCUAGCAUAGA: 1.23
GCCAAGUGGAUGCUUUUCAGUAACAGUGAAGUGGAGUGAAUACCAAAUGUUUGCCCUGGUGGUUCCUAUCUCUUCAGGCAAACAUGGUCAGUAUUCUGUAAAGUUCCCCU: 0.3
ACAAUAAAGCACAGGCCUUACCGCGGCGUCACCCUCUCCCACUCCUUUGUUCUGGGUCCUUUCGGGAGGGCUGAUGGGCAGCACAGGAGGCCCGUCCUCGGGGGGCUGCG: 0.338
AAAGGCCCGAGUGGCUUUGAUGCAGUUGGUAACCACUUGAGAGCAGAGAUGUCUUAACUUGUCAGGAGUCCUUACCUGACAUGACCCUGUUUCAACAGGAAAGUAGAUGU: 0.216
UCAGAUUGUUGCUGCACAUAGUUGCCUUUGUAUCUCUGUAUGAAAUAAAAGGUCAUUUGUUCAUGUUUGUGUUUUUCUCAGUUUCAUUGUUAACAGUUCCUGCUAAACAC: 0.422
GUGUGUCUGUGUUGACCCUGGGACAAGUGUGAGACAGGAAGAGUGUGGGGAGUCUGGGCUCGGUAGUAACUCUGGGAUAUUUCAAGGAUGGCUUUCUUUUUGACUGUGCU: 1.77
GAGACCCGCAGGCGGGGCUUAGCCACCCCUCAAACCCAGGGCCCCCUGGCACCUGGCUCUGGCCGUGUUUUCUGGCCAGAGGCCCCCACUUUCCUAACUCGUGCUCCCUU: 0.365
UAAUUUUCAUGGCUUUGCUUGAUCUGUUGAUGCUUUCUCUCAUCAAGACUUUGCAGCAUUUUAGCCAGGCAGUAUUUACUCAUUAUUAGGAAAAUCAAGAUGUGGCUGAA: 0.294

Repeated from above (block 4):
AGTCATAG: 0.13
AATTGGGG: 0.0373
ATGGTCGC: -0.137
ATTAATTA: 0.401
TTCCTCAA: 0.0869
CGACTGAG: -0.33
GTACTTAA: 0.185
CTGGGCCC: -0.359
GTGCGCAA: -0.11
CTACACTC: -0.112
GAAGTTCA: 0.112
